Assay results pooled from the literature.
Lines come from different studies, so protocols differ. Values joined by “and” are separate records of one study, mostly repeats; a detail may differ. Numbers after ± are the reported error.

CC(C)NCC(O)c1ccc(O)c(O)c1 (stereo not drawn)
sarcomere length (mouse ventricular cardiomyocytes; dose not given, 0.399 s): 1.8 µm

CC(C)(C)c1cc(NC(=O)Nc2ccc(-c3cn4c(n3)sc3cc(OCCN5CCOCC5)ccc34)cc2)no1
beat rate (iCell Cardiomyocytes (hiPSC-derived); xCELLigence Cardio impedance; concentration not given, 2 h; baseline: control): 96.1%

CSc1cc(Oc2ccnc3[nH]c(=O)cnc23)ccc1NC(=O)Nc1cc(C(C)(C)C)nn1-c1ccccc1
phospho ratio (patient-derived cells; RPPA, measured: phosphorylated Rb; 1 µM, 4 h, mean of three patients; baseline: DMSO): 0.76

C[C@]12O[C@H](C[C@]1(O)CO)n1c3ccccc3c3c4c(c5c6ccccc6n2c5c31)CNC4=O
beat amplitude (iCell Cardiomyocytes (hiPSC-derived); xCELLigence Cardio impedance; concentration not given, 2 h; baseline: control): 50.7%

Cc1cccc(-c2[nH]c(CNc3ccccc3F)nc2-c2ccc3ncnn3c2)n1
viability (MM1.S; XTT; 1.2 µM): 49% and 53% and 51%

COC(=O)Nc1nc2ccc(C(=O)c3cccs3)cc2[nH]1
maximal ROS response (HepaRG; ROS-Glo): -106 ± 13.3%

CCn1cc(-c2cc(Cn3ccoc3=N)cc3c2CCN([C@@H](C)c2cc(OC)ccn2)C3=O)c(C(F)(F)F)n1
EC50 (TOV21G; cell growth, inhibitor; 120 h): > 30 µM

COc1ccc(-n2nc(C(C)=O)s/c2=N\N=C(/C)c2ccc(NC(=O)c3ccc(Cl)cc3)cc2)cc1
toxicity (MCF7; 10 µM): 96.5%

C[C@]12CC[C@@H]3c4ccc(O)cc4C[C@@H](CCCCCCCCC[S+]([O-])CCCC(F)(F)C(F)(F)F)[C@H]3[C@@H]1CC[C@@H]2O (stereo partly drawn)
maximum inhibition (MCF7/luciferase, wild type; cell proliferation): 79.1%

C=Cc1c2[n-]c(c1C)/C=c1\[n-]/c(c(C)c1C=C)=C\c1[n-]c(c(CCC(=O)O)c1C)/C=c1\[n-]c(c(C)c1CCC(=O)O)=C2.[Sn+4]
fold change (SH-SY5Y; RNA-seq, measured: ITGA2 mRNA; 5 µM, 5 h; baseline: untreated cells): 2.49

c1ccc2[nH]ccc2c1
mRNA level, LS mean (HCT-8; RNA-seq, measured: SLC43A2; concentration not given): 119 counts per million

O=C(NOCC1CC1)c1ccc(F)c(F)c1Nc1ccc(I)cc1Cl
ATP level (iCell Cardiomyocytes (hiPSC-derived); CellTiter-Glo; concentration not given, 24 h; baseline: control): 96.4%

Clc1ccc(C2(c3ccc(-c4cn[nH]c4)cc3)CCNCC2)cc1
relative cell number (SK-OV-3; ATP; 0.01 µM, 4 days, 3D U-bottom low-attachment; baseline: untreated): 113%

COc1cc(/C=C/C(=O)N2CCC=CC2=O)cc(OC)c1OC
mRNA level (MDA-MB-468; quantitative RT-PCR, measured: NDUFB4; 30 µM, 8 h; baseline: untreated cells): 79.5 ± 8.9%

C#C[C@@]1(O)[C@@H](CO)O[C@@H](n2cc(Cl)c3c(N)ncnc32)[C@@H]1O
TGI (NCI/ADR-RES; cell growth, SRB): 0.777 µM

[Cl-].[Cl-].[Os+2].c1cnc2c(c1)ccc1cccnc12.c1cnc2c(c1)ccc1cccnc12.c1cnc2c(c1)ccc1cccnc12
GI50 (SK-MEL-28; cell growth, SRB; dark, 1% O2 hypoxia): 127 µM

CN1CCN(c2ccc3[nH]c(-c4ccc5[nH]c(-c6ccc(C(F)(F)F)cc6)nc5c4)nc3c2)CC1
growth percent (SK-MEL-2; SRB; 10 µM, 48 h): 103%

CCCCc1nc(Cl)c(CO)n1Cc1ccc(-c2ccccc2-c2nn[nH]n2)cc1
log2 fold change (human PBMC; RNA-seq, measured: SLC7A8 mRNA; 10 µg/mL, 24 h; baseline: untreated control): -2.1

CCCCc1oc2ccc(NS(C)(=O)=O)cc2c1C(=O)c1ccc(OCCCN(CCCC)CCCC)cc1
fold change (human embryonic stem cell aggregates; mRNA level, microarray, measured: NEUROG2; 0.5 µM, 120 h; baseline: untreated, up-regulated): 2.2 fold

c1ccc(-c2cccc(Cc3ncnc4ccccc34)c2)cc1
inhibition (A549; mitochondrial oxygen consumption, Seahorse XF96; 10 µM): 65%

Cn1cc(Nc2nccc(-c3ccc4c(c3)CN(C3COC3)CC[C@H]4NC(=O)c3cn(C(C)(C)C)nn3)n2)cn1
number of downregulated genes (human B cells; 100 nM, 64 h, stimulation-downregulated genes, with: CD40L, anti-IgM, IL-4): 18

O=C(/C=C/C=C/C=C/C1CCCCC1)NC1=C[C@@](O)(/C=C/C=C/C=C/C(=O)NC2=C(O)CCC2=O)[C@@H]2O[C@@H]2C1=O
GI50 (MDA-MB-157; cell growth, CellTiter-Glo; 78 h): 7.78 µM

OC1CCN(c2ccc(/C=N/NC(=S)NCc3ccc(Cl)cc3)cc2)CC1
selectivity ratio (BEAS-2B and A549; MTT; baseline: IC50 BEAS-2B over IC50 A549): 9.2

Cn1cc(-c2ccc(-c3cncc(Cl)c3N3CCC4(CCNC4=O)CC3)cc2)cn1
log2 fold change (COLO 205; gene expression, microarray, measured: HIF1A mRNA; concentration not given, 6 h; baseline: untreated cells): -2.03

COc1cc(N2CCC(N3CCN(C)CC3)CC2)ccc1Nc1ncc(Cl)c(Nc2ccccc2P(C)(C)=O)n1
Emax (NB1 (ALK amplification, exon 2-3 deletion); cell viability): 79%

COc1ccc(C[C@@H]2c3cc(Oc4cc(/C=C5\CN(C)CCc6cc(OC)c(OC)cc65)ccc4O)c(OC)cc3CCN2C)cc1
inhibition (3T3-L1; adipocyte lipid accumulation, Nile Red staining; 15 µM): 36.2 ± 1.8%

CC#CC(=O)N1CCC[C@H]1c1nc(-c2ccc(C(=O)Nc3ccccn3)cc2)c2c(N)nccn12
IC50 (Ramos; calcium flux, FLIPR; 2 h preincubation): 0.01 µM

CCCS(=O)(=O)Nc1ccc(F)c(C(=O)c2c[nH]c3ncc(Cl)cc23)c1F
ATP level (iCell Cardiomyocytes (hiPSC-derived); CellTiter-Glo; concentration not given, 24 h; baseline: control): 107%

C=CC(=O)Nc1cccc(Oc2nc(Nc3ccc(N4CCN(C)CC4)cc3)nc3ccoc23)c1
inhibition (TMD8 RAC2 knockout; calcium flux, FLIPR; concentration not given, 2 h preincubation): 70.8%

CCn1c(-c2nonc2N)nc2cncc(CNC3CCNCC3)c21
relative cell number (SK-OV-3; ATP; 10 µM, 4 days, 3D U-bottom low-attachment; baseline: untreated): 102%

CCc1cnc(N2CCC(c3nc(COc4ccc(-n5cnnn5)cc4)cs3)CC2)nc1
normalized enrichment score (HEK-293T; RNA-seq GSEA, measured: HALLMARK_COMPLEMENT; concentration not given; direction not given): -0.871

CNC(=O)c1ccccc1Sc1ccc2c(/C=C/c3ccccn3)n[nH]c2c1
beat amplitude (iCell Cardiomyocytes (hiPSC-derived); xCELLigence Cardio impedance; concentration not given, 2 h; baseline: control): 104%

COc1cc(-c2ccccc2)ncc1C(=O)Nc1ccc2c(=O)[nH]c(-c3ccc(C(C)(C)O)cc3)nc2c1
Hill slope (Apc Q1405X mutant organoids; organoid viability, AlamarBlue; mouse small intestinal organoids; 6 days, Tnks genotype Tnks-/-): -1.2

Cc1cc(Nc2ncc(Cl)c(Nc3ccccc3S(=O)(=O)C(C)C)n2)c(OC(C)C)cc1C1CCNCC1
log2 fold change (CLB-BAR; phosphoproteomics LC-MS/MS, measured: IWS1 phosphorylation; 200 nM, 60 min; baseline: untreated): -3.13

O=C(Oc1cc(O)cc2c1C[C@@H](OC(=O)c1cc(O)c(O)c(O)c1)[C@@H](c1cc(O)c(O)c(O)c1)O2)c1cc(O)c(O)c(O)c1
phospho-ZAP-70 positive cells (Jurkat TAg T cells; phospho-flow cytometry; 500 nM, 30 min, 37 °C, with: TCR stimulation 2 min; baseline: DMSO): 22.8%

CC(C)(C)c1cnc(CSc2cnc(NC(=O)C3CCNCC3)s2)o1
ATP level (iCell Cardiomyocytes (hiPSC-derived); CellTiter-Glo; concentration not given, 24 h; baseline: control): 83.9%

CCCCN1CCN(c2ccc3[nH]c(-c4ccc5[nH]c(-c6ccc(OCC)cc6)nc5c4)nc3c2)CC1
growth percent (BT-549; SRB; 10 µM, 48 h): 83.9%

COc1cnc2cccc(N3CCc4c(cc(Cn5ccnc5C)cc4-c4cn(C)nc4C(F)(F)F)C3=O)c2c1
EC50 (GP2d; cell growth, inhibitor; 120 h): 17.3 µM

COc1ccc(C[C@H](N)C(=O)N[C@H]2[C@@H](O)[C@H](n3cnc4c(N(C)C)ncnc43)O[C@@H]2CO)cc1
secreted Gaussia luciferase (HEK293; protein secretion; concentration not given, unit not given; baseline: mock): 0.115

c1ccc(-c2csc(NCc3ncccn3)n2)nc1
selectivity ratio (THLE-2; baseline: CC50 THLE-2 over Huh-7): < 2

CC1(C)COc2ccc(F)cc2CN2c3nc4c(cnn4cc3OC[C@H]2C(F)F)C(=O)N1
IC50 (Ba/F3 EML4-ALK variant 1 E1210K; cell viability): 0.00741 µM

C=CC(=O)N1CCC[C@@H](n2nc(-c3ccc(Oc4ccccc4)cc3)c3c(N)ncnc32)C1
IC50 (Ramos; calcium flux, FLIPR; 1 h preincubation): 0.00287 µM

OCc1nc2ccc(NCc3ccc(C(F)(F)F)cc3)cc2[nH]1
Emax (sample A patient iPSC NPCs; cell protection, MTS; up to 100 µM, 24 h): 20%

O=C(Nc1c[nH]nc1-c1nc2ccc(CN3CCOCC3)cc2[nH]1)NC1CC1
fibulin-3 level (ARPE-19 HiBiT fibulin-3; HiBiT luminescence; 5 µM): -37.9%

c1ccc2c(Cc3ccc4cnn(C5COC5)c4c3)nccc2c1
inhibition (A549; mitochondrial oxygen consumption, Seahorse XF96; 10 µM): 0%

Cn1cc(-c2ccc(F)c(C(F)(F)F)c2)nc1C1CCN(c2ncnc3[nH]ncc23)CC1
relative cell number (SK-OV-3; ATP; 10 µM, 4 days, 3D U-bottom low-attachment; baseline: untreated): 111%

CCn1c(-c2nonc2N)nc2c(C#CC(C)(C)O)ncc(OC[C@H]3CCCNC3)c21
beat rate (iCell Cardiomyocytes (hiPSC-derived); xCELLigence Cardio impedance; concentration not given, 2 h; baseline: control): 84.9%

O=C(O)c1ccc(-c2c[nH]c3ncc(-c4ccccc4)cc23)cc1C1CCCC1
relative cell number (SK-OV-3; ATP; 0.01 µM, 4 days, 3D U-bottom low-attachment; baseline: untreated): 113%

NCCC(=O)N[C@@H](Cc1cnc[nH]1)C(=O)O
z-scored log2 fold change (binding, equilibrium dialysis LC-MS; 5 µM, thermostabilized A2AR-BRIL construct; baseline: no-protein control, direction not given): 0.0659

COc1cc([C@@H](CC(=O)O)c2ccc(C)c(CN3C[C@@H](C)Oc4ccccc4S3(=O)=O)c2)cc2nnn(C)c12
cell viability (KRAS wild-type lung cancer cells; MTT; concentration not given, 48 h, 2D culture, single agent): no effect

CCn1cc(-c2cc(Cn3ccnc3)cc3c2CCN([C@H](c2cc(OC)ccn2)C2CC2)C3=O)c(C(F)(F)F)n1
EC50 (MKN-74; cell growth, inhibitor; 120 h): > 30 µM

Cc1cc(C)n(-c2nc(-c3ccc(Cl)cc3)c3c(NC(=O)c4ccccc4)nnc-3[nH]2)n1
cell growth (NCI-H226; SRB; 10 µM, NCI60 single-dose screen; baseline: untreated): 91.4%

CCN(CC)CCNC(=O)c1c(C)[nH]c(/C=C2\C(=O)Nc3ccc(F)cc32)c1C
beat rate (iCell Cardiomyocytes (hiPSC-derived); xCELLigence Cardio impedance; concentration not given, 2 h; baseline: control): 74.5%

CCCCCCNC(=O)n1cc(F)c(=O)[nH]c1=O
ceramide level (SW-403; LC-MS, measured: Cer(d18:1/18:0); 0.3 µM): 0.4 ± 0.02 pmol/mg protein

Some of these lines once more:
Cn1cc(-c2ccc(F)c(C(F)(F)F)c2)nc1C1CCN(c2ncnc3[nH]ncc23)CC1
relative cell number (SK-OV-3; ATP; 10 µM, 4 days, 3D U-bottom low-attachment; baseline: untreated): 111%

[Cl-].[Cl-].[Os+2].c1cnc2c(c1)ccc1cccnc12.c1cnc2c(c1)ccc1cccnc12.c1cnc2c(c1)ccc1cccnc12
GI50 (SK-MEL-28; cell growth, SRB; dark, 1% O2 hypoxia): 127 µM

C=Cc1c2[n-]c(c1C)/C=c1\[n-]/c(c(C)c1C=C)=C\c1[n-]c(c(CCC(=O)O)c1C)/C=c1\[n-]c(c(C)c1CCC(=O)O)=C2.[Sn+4]
fold change (SH-SY5Y; RNA-seq, measured: ITGA2 mRNA; 5 µM, 5 h; baseline: untreated cells): 2.49
